Published values of several laboratories.
Compare with care: the assays were run in different laboratories. “And” joins repeats or separate records; there may be more than shown. ± marks the error that the study gave.

Compound | tested on | test | test system | setting | how to read | measurement | value
O=C(COc1ccc(Cl)cc1)NC12CC(c3nnc([C@H]4C[C@@H](OC(F)(F)F)C4)o3)(C1)C2 |  |  | healthy human, PBMC | oral, 15 mg single dose, day 1, 4 h post-dose, median, added: sodium arsenite ex vivo | baseline: baseline | CHAC1 mRNA change | 12.3%
COc1cc2cc(-c3ccc(CC(=O)Nc4cc(C(C)(C)C(F)(F)F)no4)cn3)cnc2cc1OC |  | RECIST v1.1 | RET-altered advanced solid tumour patients | oral, 40 mg once daily, phase I |  | progressive disease as best response | 0%
CCOc1c([C@H](C)n2nc(C)c3c(N)ncnc32)cc(Cl)c(F)c1[C@@H]1CNC(=O)C1 |  | Olink proximity extension proteomics, measured: IL10 | human FL or MZL patients, plasma | dose not given, week 8 | baseline: baseline | plasma protein level change | -51%
C[C@H]1C[C@H]2CSC(N)=N[C@@]2(c2nc(NC(=O)c3ccc(OC(F)F)cn3)cs2)CO1 |  | measured: Aβx-40 | healthy adults, plasma | 15 mg once daily, day 7 | baseline: placebo | percent change from baseline | -56.5%
CC#Cc1cncc(-c2ccc3c(c2)[C@@]2(N=C(C)C(N)=N2)[C@]2(CC[C@H](OC)CC2)C3)c1 |  | measured: Aβ40 and Aβ42 | Dunkin-Hartley guinea pigs, CSF | oral, dose not given |  | time to maximum effect | 8 h
N#Cc1ccc2c(c1)[C@H]1CCCN(C(=O)c3ccc4[nH]cnc4c3)[C@H]1C2 |  | measured: fasting plasma insulin | human, Phase II trial | oral, 20 mg once daily, day 28, adjusted mean, SE |  | change from baseline | 20.1 pmol/L
Cc1oncc1C(=O)Nc1ccc(C(F)(F)F)cc1 |  | measured: dihydroorotate | female CD-1 mice, pooled urine | oral, 10 mg/kg daily, 0-8 h after dose 1, 10-day dosing |  | DHO concentration | 383 ± 24.8 µM
Cn1cc(-c2ccc(-c3cncc(Cl)c3N3CCC4(CCNC4=O)CC3)cc2)cn1 | COLO 205 | gene expression, microarray, measured: KANK1 mRNA |  | concentration not given, 2 h | baseline: untreated cells | log2 fold change | -1.24
CCO |  |  | supine | median |  | time to maximum DBP change | 1.97 h
CCCCCCCCCCCCCCCC(=O)NCCO |  | mechanical withdrawal threshold | mouse, carrageenan inflammatory pain | oral |  | ED50 | 34.3 mg/kg
N#Cc1ccc2c(-c3ccncc3)c(-c3ccc(F)cc3)nn2c1 |  | kinase binding, competitor, MIB/MS competition, measured: PKH3 | Candida albicans cell lysate | 1 µM | baseline: DMSO | log2 fold change | -0.139
COc1ccc(-c2cncc(N[C@@H](C)c3cccc(NC(=O)c4cncc(C)c4)c3)n2)cc1OC |  | measured: rno-miR-369-3p | rat SU5416/hypoxia model, lung | dose not given | baseline: SU5416/hypoxia vehicle | fold change | 1.18
O=C1NC(=O)C(c2ccccc2)(c2ccccc2)N1 | human iPSC-derived cardiomyocytes | MyBP-C/MYH ratio, plate-normalised SD score |  | concentration not given, primary screen | direction not given | activity score | -3.3
CCN(Cc1nc2c(N)nc3cc(-c4cc[nH]n4)ccc3c2[nH]1)C(C)=O |  | Luminex, measured: IL-1β | cancer patients, serum | 2000 µg monotherapy, first 24 h | baseline: baseline | fold change | 6.6
COC(=O)c1c(C)[nH]c(C)c1C(=O)c1ccccc1Cc1ccccc1 |  | high-content microscopy | DRG neurons, rat | dose not given, unit not given, added: DAMGO 0.1 | baseline: no DAMGO | serotonin-induced response | 0.784 and 0.703 and 0.802 and 0.688
O=C(O)CNC(=O)Cc1ccccc1 |  |  | ventricular cardiomyocytes, C57BL/6 mouse | dose not given, 0.212 s |  | sarcomere length | 1.62 µm
CO[C@H]1CC[C@H](N2C(=O)CNc3ncc(-c4ccc(C(C)(C)O)nc4)nc32)CC1 |  | flow cytometry | stimulated B cells, human, blood | 60 mg single dose, 5 h, mean | baseline: baseline | pS6RP change from baseline | -71.9%
CC(C)[N+](C)(CCOC(=O)C1c2ccccc2Oc2ccccc21)C(C)C | human iPSC-derived cardiomyocytes | MyBP-C/MYH ratio, plate-normalised SD score |  | concentration not given, primary screen | direction not given | activity score | -3.8
O=C(O)c1ccc(-n2cc(CNc3ccc(Cl)c(C(F)(F)F)c3)c(-c3cccc(F)c3)n2)cc1 |  |  | Caenorhabditis elegans, S. aureus infected | 1 µg/mL, 5 days |  | survival | ~60%
OC(CCN1CCCCC1)(c1ccccc1)C1CC2C=CC1C2 (stereo not drawn) |  | resting-state EEG | healthy elderly humans | oral, 2 mg, eyes closed, LS mean | baseline: baseline | change, EEG Alpha power, in O1-Pz | -6.9%
C[C@@H](NC(=O)N1C(=O)[C@H](Cc2ccnc(N)c2)[C@H]1C(=O)O)C1CCCCC1 |  |  | human | iv infusion, 0.3 mg/kg/h, 24 h, unit not given | baseline: baseline | ACT AUEC | 135

For quick reference, copied from above:
Compound | tested on | test | test system | setting | how to read | measurement | value
CCN(Cc1nc2c(N)nc3cc(-c4cc[nH]n4)ccc3c2[nH]1)C(C)=O |  | Luminex, measured: IL-1β | cancer patients, serum | 2000 µg monotherapy, first 24 h | baseline: baseline | fold change | 6.6
COC(=O)c1c(C)[nH]c(C)c1C(=O)c1ccccc1Cc1ccccc1 |  | high-content microscopy | DRG neurons, rat | dose not given, unit not given, added: DAMGO 0.1 | baseline: no DAMGO | serotonin-induced response | 0.784 and 0.703 and 0.802 and 0.688
O=C(O)CNC(=O)Cc1ccccc1 |  |  | ventricular cardiomyocytes, C57BL/6 mouse | dose not given, 0.212 s |  | sarcomere length | 1.62 µm
